Measured values gathered from unrelated publications.
Protocols differ between the studies behind these lines. “And” joins repeats or separate records; there may be more than shown. Numbers after ± are the reported error. Bridges are numbered along the chain shown (N, C = ends).
B1: disulfide; chain MRGSHHHHHHGSNEKGETSEKTIVRANGTRLEYTDIKSDGIEGRVDGGGGSDDDDKMACPRGIGLQCGGGS (disulfide 59-67 (inferred))

CCCC(=O)OCSc1ccccc1C(=O)NCCC(N)=O — EC50 (HIV-1; viral replication; human monocytes/macrophages, subtype B BaL, CCR5-tropic): 18.7 µM
CC1SC2(CCCCC2)N(NC(=O)Cc2csc3nc(-c4ccc(Br)cc4)cn23)C1=O (stereo not shown) — EC50 (feline coronavirus; viral cytopathic effect; CRFK): > 100 µg/mL
CC(C)[C@@H]1NC(=O)[C@H](C)OC(=O)[C@@H](C(C)C)NC(=O)[C@@H](C(C)C)OC(=O)[C@H](C(C)C)NC(=O)[C@H](C)OC(=O)[C@@H](C(C)C)NC(=O)[C@@H](C(C)C)OC(=O)[C@H](C(C)C)NC(=O)[C@H](C)OC(=O)[C@@H](C(C)C)NC(=O)[C@@H](C(C)C)OC1=O — EC50 (Feline infectious peritonitis virus; viral replication, visual scoring; 48 h): 1.63 ± 0.1 µM
CCOP(=O)(OCC)[C@@H]1C[C@@H](Cn2c(=O)n(C(=O)c3cccc(F)c3)c(=O)c3ccccc32)ON1Cc1ccccc1 (relative stereo) — EC50 (human alphaherpesvirus 3; viral replication, plaque reduction; HEL, Oka TK+): 6 to 8.5 µM
CN(C)CCNC(=O)c1cc(-c2cccs2)nc2ccccc12 — EC50 (Enterovirus D68; viral replication; RD, US/KY/14-18953): < 1 µM
Cc1ccc(S(=O)(=O)N2C(=O)CSC2c2ccc(Cl)cc2)cc1 (stereo not shown) — EC50 (HIV-2; viral cytopathicity, MTT; MT-4, ROD): > 125 µM
O=C(N/N=C1\C(=O)Nc2ccccc21)N/N=C1\C(=O)Nc2ccccc21 — EC50 (varicella-zoster virus; plaque formation; HEL, TK+): > 20 µM
Cc1c(C(=O)C(=O)NCc2cn(CCCCCCCCCCCCCCn3cc(CNC(=O)C(=O)c4c(C)c(C(=O)Nc5ccc(F)c(F)c5)n(C)c4C)nn3)nn2)c(C)n(C)c1C(=O)Nc1ccc(F)c(F)c1 — EC50 (hepatitis B virus; viral replication, chemiluminescence immunoassay, item: secreted HBeAg; HBV-infected HepG2-NTCP cells; day 8 post-infection, daily from day 4 post-infection): 3.13 µM
Cc1ccc(S(=O)(=O)N2C(=O)CSC2c2ccccc2Cl)cc1 (stereo not shown) — EC50 (herpes simplex virus 2; viral cytopathicity; HEL, G): > 100 µM
C/C(O)=C(\C#N)C(=O)Nc1ccc(C(F)(F)F)cc1 — EC50 (human coronavirus OC43; cytopathic effect, CellTiter-Glo; Huh-7; 7 d): > 100 µM
Cc1cc(C#N)cc(C)c1Oc1nc(NC2CCN(Cc3ccc(S(N)(=O)=O)cc3)CC2)nc2c1SCC2 — EC50 (HIV-2; viral replication; MT-4, ROD): 5.1 µM
Cc1c(-c2ccc(-c3ccccc3F)cc2)nc2ccc(F)cc2c1C(=O)O — EC50 (human respiratory syncytial virus; viral replication; BEAS-2B): 1.6 µM
c1coc(-c2nn3c(Cn4cnc5ccccc54)nnc3s2)c1 — EC50 (human respiratory syncytial virus; viral replication; HEp-2, Long; 96 h): 0.66 µM
B1 — EC50 (Borrelia garinii; cyst to spirochete conversion, flow cytometry; SKT-7.1; 16 h): 0.83 µM
CC(C)c1cc2c(cc1O)[C@@]1(C)CCC[C@@](C)(C=O)[C@@H]1CC2 — EC50 (human alphaherpesvirus 1; viral replication, plaque reduction; Vero; 72 h, pre-infection treatment): > 20.8 µM
Cc1ccc(S(=O)(=O)N2C(=O)CSC2c2ccccc2F)cc1 (stereo not shown) — EC50 (HIV-2; viral cytopathicity, MTT; MT-4, ROD): 111 µM
O=C(Nc1ccc(F)c(-c2nc3ncc(-c4ccccc4)cc3[nH]2)c1)N1CCCC1 — EC50 (Leishmania amazonensis; alamarBlue; axenic amastigotes; 72 h): 0.16 ± 0.0018 µM
C[C@H](NP(=O)(OCCOCn1cnc2c(=O)[nH]c(N)nc21)Oc1cccc2ccccc12)C(=O)OC(C)(C)C (stereo partly shown) — EC50 (herpes simplex virus 2; cytopathic effect; HEL fibroblasts, G): ≥ 50 µM
Nc1ccc(S(N)(=O)=O)cc1 — EC50 (Human gammaherpesvirus 8; latent viral DNA; BC-3): 8 ± 4 µg/mL
NC(=O)c1ncn([C@@H]2O[C@H](CO)[C@@H](O)[C@H]2O)n1 — EC50 (Coxsackievirus B4; viral cytopathic effect, MTS; HEp-2): 109 µM
Cc1ccc(S(=O)(=O)N2C(=O)CSC2c2cccc(Br)c2)cc1 (stereo not shown) — EC50 (HIV-2; viral cytopathicity, MTT; MT-4, ROD): > 125 µM
O[C@@H](CS)[C@@H](O)CS (racemic) — EC50 (Helicobacter pylori; Lewis b binding loss, radioligand binding; 17875/Leb; cells pre-exposed to compound): 10000 µM
CC1(C)N=C(N)N=C(N)N1c1cccc(C(F)(F)F)c1 — EC50 (human respiratory syncytial virus; cytopathic effect, microscopy; HeLa, Long): ~0.008 µM
C/C(=N\C#N)N(C)Cc1ccc(Cl)nc1 — EC50 (Folsomia candida; reproduction, OECD 232; LUFA 2.2 soil; 28 days): 0.1 mg/kg dry soil
Cc1oncc1C(=O)Nc1ccc(C(F)(F)F)cc1 — EC50 (human coronavirus OC43; viral RNA, qPCR; Huh-7; 7 d): 72.6 µM
C#CCOc1ccc(C(=O)c2ccc(C(=O)Nc3cc(C)nn3-c3nc(C)c(CC)c(=O)[nH]3)cc2)cc1 — EC50 (Leishmania amazonensis; alamarBlue; axenic amastigotes; 72 h): 0.156 µM and 0.16 µM
Cc1ccc(S(=O)(=O)N2C(=O)CSC2c2ccc([N+](=O)[O-])cc2)cc1 (stereo not shown) — EC50 (HIV-2; viral cytopathicity, MTT; MT-4, ROD): > 125 µM
C[C@H](Cn1cnc2c(N)ncnc21)OCP(=O)(O)O — EC50 (human alphaherpesvirus 1; viral replication; human keratinocytes; 72 h): 141 ± 53 µg/mL
COc1cc([C@@H]2c3cc4c(cc3C(=O)[C@H]3COC(=O)[C@H]23)OCO4)cc(OC)c1OC — EC50 (Leishmania infantum; parasite growth; promastigote): > 100 µM
Nc1ccn([C@@H]2O[C@H](CO)[C@@H](O)C2(F)F)c(=O)n1 — EC50 (human respiratory syncytial virus; viral replication; BEAS-2B): 0.09 µM
Cc1cccc(-c2ccc([C@@H]3[C@@H](CO)N4CCCCN(S(=O)(=O)c5cn(C)cn5)C[C@@H]34)cc2)c1 — EC50 (Respiratory syncytial virus; cytopathic effect; A2): 3.9 µM
C=C1[C@H](CO)[C@@H](O)C[C@@H]1n1cnc2c(=O)[nH]c(N)nc21 — EC50 (hepatitis B virus; viral replication; HepG2.2.15): 0.008 ± 0.001 µM
Cc1ccc(S(=O)(=O)N2C(=O)CSC2c2ccc(O)cc2)cc1 (stereo not shown) — EC50 (HIV-2; viral cytopathicity, MTT; MT-4, ROD): > 125 µM
CCC(C)(C)C(=O)O[C@H]1C[C@@H](C)C=C2C=C[C@H](C)[C@H](CC[C@@H]3C[C@@H](O)CC(=O)O3)[C@H]21 — EC50 (hepatitis B virus; viral replication; HepG2.2.15): 2.5 ± 0.3 µM
CCOP(=O)(OCC)[C@@H]1C[C@@H](Cn2c(=O)n(C(=O)c3ccccc3)c(=O)c3ccccc32)ON1C — EC50 (human alphaherpesvirus 3; plaque formation; HEL, TK-deficient 07-1): 10.7 to 13.2 µM
C[C@H](Cn1cnc2c(=O)[nH]c(=O)[nH]c21)OCP(=O)(O)O — EC50 (Human alphaherpesvirus 3; plaque formation, inhibitor; HEL): > 100 µM
Cc1ccc(S(=O)(=O)N2C(=O)CSC2c2ccc(C(C)C)cc2)cc1 (stereo not shown) — EC50 (HIV-2; viral cytopathicity, MTT; MT-4, ROD): > 125 µM
CN[C@@H]1[C@H](O[C@@H]2OC[C@@H](O)[C@H](O)[C@H]2O)[C@@H](O)[C@H](O[C@H]2c3cc(C)c(C(=O)N[C@H](C)C(=O)O)c(O)c3-c3c(cc4c(c3O)C(=O)c3cc(OC)cc(O)c3C4=O)[C@@H]2O)O[C@@H]1C — EC50 (feline coronavirus; viral cytopathicity, MTT; FCWF, 79-1683, serotype II; 48 h): > 120 µM
O=C(Nc1ccc2c(c1)B(O)OC2)c1ccccc1C(F)(F)F — EC50 (Leishmania amazonensis; alamarBlue; axenic amastigotes; 72 h): 0.22 ± 0.05 µM
COC(=O)N[C@H](C(=O)N1CCC[C@H]1c1ncc(-c2ccc(-c3ccc(-c4cnc([C@@H]5CCCN5C(=O)[C@@H](NC(=O)OC)C(C)C)[nH]4)cc3)cc2)[nH]1)C(C)C — EC50 (hepatitis C virus; viral replication, transient replicon; genotype 1a NS5A Q30H): 0.0087 ± 0.0019 µM
O.O.O.O.O.O.O.O.O.O=C([O-])[C@@H]1[O][Sb](=[O])([O][Sb]2(=[O])[O][C@H]([C@H](O)CO)[C@H](O)[C@H](C(=O)[O-])[O]2)[O][C@H]([C@H](O)CO)[C@@H]1O.[Na+].[Na+].[Na+] (stereo partly shown) — EC50 (Leishmania amazonensis; parasite infection; THP-1, eGFP-expressing amastigotes): 120 ± 18 µg/mL
COc1ccc(-n2c(SC(C)C(=O)Nc3ccc(C)cc3Cl)nc3ccccc32)cc1 (stereo not shown) — EC50 (Measles morbillivirus; viral replication; Alaska): 0.17 µM
Cc1ccc(S(=O)(=O)N2C(=O)CSC2c2ccccc2O)cc1 (stereo not shown) — EC50 (herpes simplex virus 2; viral cytopathicity; HEL, G): > 100 µM

Repeated from above:
C=C1[C@H](CO)[C@@H](O)C[C@@H]1n1cnc2c(=O)[nH]c(N)nc21 — EC50 (hepatitis B virus; viral replication; HepG2.2.15): 0.008 ± 0.001 µM
C[C@H](Cn1cnc2c(=O)[nH]c(=O)[nH]c21)OCP(=O)(O)O — EC50 (Human alphaherpesvirus 3; plaque formation, inhibitor; HEL): > 100 µM
NC(=O)c1ncn([C@@H]2O[C@H](CO)[C@@H](O)[C@H]2O)n1 — EC50 (Coxsackievirus B4; viral cytopathic effect, MTS; HEp-2): 109 µM
Cc1c(C(=O)C(=O)NCc2cn(CCCCCCCCCCCCCCn3cc(CNC(=O)C(=O)c4c(C)c(C(=O)Nc5ccc(F)c(F)c5)n(C)c4C)nn3)nn2)c(C)n(C)c1C(=O)Nc1ccc(F)c(F)c1 — EC50 (hepatitis B virus; viral replication, chemiluminescence immunoassay, item: secreted HBeAg; HBV-infected HepG2-NTCP cells; day 8 post-infection, daily from day 4 post-infection): 3.13 µM
C[C@H](NP(=O)(OCCOCn1cnc2c(=O)[nH]c(N)nc21)Oc1cccc2ccccc12)C(=O)OC(C)(C)C (stereo partly shown) — EC50 (herpes simplex virus 2; cytopathic effect; HEL fibroblasts, G): ≥ 50 µM
CN[C@@H]1[C@H](O[C@@H]2OC[C@@H](O)[C@H](O)[C@H]2O)[C@@H](O)[C@H](O[C@H]2c3cc(C)c(C(=O)N[C@H](C)C(=O)O)c(O)c3-c3c(cc4c(c3O)C(=O)c3cc(OC)cc(O)c3C4=O)[C@@H]2O)O[C@@H]1C — EC50 (feline coronavirus; viral cytopathicity, MTT; FCWF, 79-1683, serotype II; 48 h): > 120 µM
